# Measurements collected from several papers.
# Numbered parts are unrelated; each lists some results of a single study.

# Set 1 — method: aptamer microarray, sandwich; molecule type: DNA with 2'F-ANA; sample: in vitro; tested at: 200 nM; added: Cy3 exosite-II aptamer, 400 nM; reading: higher = stronger binding; sequence: GGTTGGTGTGGTTGG
# Target: Prothrombin, mature alpha-thrombin (F2, Homo sapiens, UniProt P00734)
# Setting: whole 15-mer aptamer, many near background
Modification,mean fluorescence intensity [a.u.]
2'F-ANA at 1 2 5 6 7 10 12 14 15,47.1
2'F-ANA at 2 3 4 5 6 8 10 11 12 13,52.8
2'F-ANA at 1 4 6 7 9 10 11 12,55.7
2'F-ANA at 1 3 5 7 10 11 12 13 15,104
2'F-ANA at 6 9 11 12 13 15,452
2'F-ANA at 2 4 7 10 12 14,81.6
2'F-ANA at 1 3 5 6 8 9 10 12 13 14,47.1
2'F-ANA at 1 2 12 14,65.3
2'F-ANA at 3 4 7 9 10 12 13 15,321
2'F-ANA at 1 3 5 8 10 13,63.5
2'F-ANA at 1 2 3 4 5 8 11 12 13 14 15,52.9
2'F-ANA at 1 7 9 10 12 13,64.9
2'F-ANA at 2 3 4 5 7 11 12 13 14,53.5
2'F-ANA at 6 7 8 9 11 13 15,371
2'F-ANA at 1 4 5 7 9 10 11 12 13 14 15,53.8
2'F-ANA at 1 2 3 5 6 7 10 15,53.3
2'F-ANA at 4 6 7 8 10 12 13 15,90.1
2'F-ANA at 1 2 3 5 7 8 10 11 14 15,45.9
2'F-ANA at 1 3 4 5 6 8 14,45
2'F-ANA at 1 2 3 4 5 9 11 12 15,160
2'F-ANA at 1 2 3 4 8 11 15,193
2'F-ANA at 1 5 7 8 9 10 12 14,50.4
2'F-ANA at 1 2 3 6 7 8 9 11 12 14,107
2'F-ANA at 1 3 4 6 9 13 15,120
2'F-ANA at 1 2 3 6 11 13 15,133

# Set 2 — method: protein binding microarray; molecule type: double-stranded DNA, one strand shown; sample: in vitro; tested at: not given; reference: not given; reading: higher = stronger binding
# Target: Histone acetyltransferase KAT6A, winged helix 1, GST fusion (KAT6A, Homo sapiens, UniProt Q92794, residues 1-85)
# Setting: 8-mer, flanks averaged, mean of 2 arrays, mostly near background
# Residues (chain): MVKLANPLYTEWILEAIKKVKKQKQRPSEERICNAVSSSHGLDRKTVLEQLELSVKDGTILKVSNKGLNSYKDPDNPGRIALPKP
Sequence,E-score
ATACCGAC,0.165
ACATGGTA,0.0165
ATTGTTAA,-0.145
CCGGCTGC,0.167
GACCGAAC,-0.0169
GGCTGTCA,-0.0345
GGGCCCAC,0.0453
CCCATAGG,-0.114
CTTACTAA,-0.0505
AGAATACC,-0.0547
GTTGGATA,-0.224
GATGGTAC,-0.0459
AGGTATCC,-0.0653
CTTAACTA,-0.103
CACGCCAG,0.044
CTATTAGA,-0.2
ACAGCTAT,-0.221

# Set 3 — method: RNA Bind-n-Seq; molecule type: RNA; sample: in vitro; tested at: 365 nM; reference: no-protein control; reading: higher = stronger binding
# Target: RNA binding protein fox-1 homolog 2, RRM domain, GST-SBP tag (RBFOX2, Homo sapiens, UniProt O43251-10, residues 100-194)
# Setting: natural RNA segment, single round, ends assumed
# Shared flanks, not repeated: GGGAGUUCUACAGUCCGACGAUC … UGGAAUUCUCGGGUGCCAA
# Construct (chain): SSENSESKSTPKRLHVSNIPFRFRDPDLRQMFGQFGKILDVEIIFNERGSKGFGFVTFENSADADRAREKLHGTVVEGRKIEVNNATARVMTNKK
Sequence,RBNS enrichment (R)
UUUAGAGCUUAUCUCAGAUUUAAAUAGCCAAAGGAAGACCUCAUUGCCUUCCAGGUGAAGGUGCAAAGUCAUACAUAUUAAUGACCUGACAGUUAACAUUCUGUUGUUUA,0.36
AUUUUAGUAUAGUUUAAAGUUGAGCUGCCUUUUCUUAUGUAGCUAUUUAAAAUAUUUCUGAAGUUCAGUAAUUUGGAUGCCUUCAUUAGUAGAUGCUGUCCUAUAUACCU,0.356
AGGGACUUUUUUUGAAUCCUCAGUGGCAUUUUUUUAAGGGAAAUAUGCAGAGUGGAUAUCUGGGUGGGUUGGGCCACAAGAUUGGAUUUUGGUUCCACUUGGACAACAAA,0.733
ACUCGCAGGCAGGCCUGAGAGCCCCAGCCACUCUUCCGGCCCUCGGCGGACCUGCAGAUGACCUGGAGUUCCUGAUUCAGGUCCCUGUCUGCAGCCCGGGCUGCCUGGGC,0.235
GACUCUGGCACCAUGCCAGCUGACUGCUACCCAGGUCAGAUUGGACUCAUGGUCAAUACCCAGCCAGUCUUCUUACAGGGACUUGAGAGGCUCAGGCUACUAUGACCAAU,0.46
CUACAUGGCGCUGAGCCCCAACUCCUGUCCUGUGGUGUGUGUCACACGUGUUUUUACUGACUGAAGCCAACCAUCCUGAACUGUCAUGCAGAGAAUUCUUGCAGGAAUCA,0.541
ACACAACAACAUCUGUACAAGCAUAUAUAUUUCAAAUCCAAGAUCUUGCCCUGUAACCCAUAUCUACUGUUCUGGCGACAAAAGACAGAUGUUAAGUGUAACAGAUAAUU,1.06
AUUUGAUACUUUUAAUUUACACUUAGUAAAUUAAAAGUUGUUUAAUUUACUUGGCAUUUUAGGACAUGUACAUGAAACAGUGAAAAUGAGAUCCACCAACAUCUUUUAUU,0.553

# Set 4 — method: universal PBM; molecule type: double-stranded DNA, one strand shown; sample: in vitro; tested at: not given; reading: higher = stronger binding
# Target: Sal-like protein 4, full length isoform B (SALL4, Homo sapiens, UniProt Q9UJQ4-2, residues 1-616)
# Setting: 8-mer, flanks averaged, mean of replicates
Sequence,E-score
GTGCCAAA,-0.057
ATGTCGAC,0.13
CTTTCCCC,-0.11
AATTAGGG,-0.0185
AGGCTATA,0.131
CCTCCGAA,-0.195
TCGACACA,0.0731
ATTCTTAG,0.0428
AAGATGGT,0.0773
CCGGGCAG,-0.396
ACTTTACA,0.109
AGATCGTG,-0.0322
CCAGCTCG,-0.338
AGTAGGTA,0.145
ACGAACGG,0.00519
ATAGCCAT,0.141

# Repeated from above (set 1):
Modification,mean fluorescence intensity [a.u.]
2'F-ANA at 1 2 5 6 7 10 12 14 15,47.1
2'F-ANA at 1 7 9 10 12 13,64.9
2'F-ANA at 1 2 3 4 5 9 11 12 15,160
2'F-ANA at 6 9 11 12 13 15,452
2'F-ANA at 1 4 6 7 9 10 11 12,55.7
2'F-ANA at 2 3 4 5 6 8 10 11 12 13,52.8
2'F-ANA at 1 3 4 6 9 13 15,120
2'F-ANA at 6 7 8 9 11 13 15,371
2'F-ANA at 3 4 7 9 10 12 13 15,321
2'F-ANA at 1 4 5 7 9 10 11 12 13 14 15,53.8
